Experimental data of several laboratories.
Each numbered part is a random draw from the data of one study; scales do not carry over between parts.

Study 1
Target: Sal-like protein 4, full length isoform B (SALL4, Homo sapiens, UniProt Q9UJQ4-2, residues 1-616)
Technique: universal PBM
Form: double-stranded DNA, one strand shown
Matrix: in vitro
Concentration: not given
Setting: 8-mer, flanks averaged, mean of replicates
Reading: higher = stronger binding
Endpoint: E-score
GGGCGATA: -0.0958
AACCAGTC: 0.00975
CACCCATG: -0.00072
GGTCGCAC: -0.193
AACGTCAG: -0.0299
ACATTTCT: 0.173
CCCTTATA: 0.226
ACCCTCCG: -0.252
CGTCTAAA: -0.0187
ACCCAAGA: -0.0507
CAATGGGA: -0.046
CTAGTTCC: -0.0472
CTACTCGC: -0.155
ACCACGCG: -0.209
ACGTTCAA: 0.122
CCTAGTGA: -0.136
AGACAGGG: -0.187
ATGATCTA: 0.195
GCGTCGAC: -0.122
CAAAGAAA: 0.101
CGGTGTAC: -0.215

Study 2
Target: Ras GTPase-activating protein-binding protein 1, full length (G3BP1, Homo sapiens, UniProt Q13283)
Sequence of UniProt Q13283 (whole entry, looked up): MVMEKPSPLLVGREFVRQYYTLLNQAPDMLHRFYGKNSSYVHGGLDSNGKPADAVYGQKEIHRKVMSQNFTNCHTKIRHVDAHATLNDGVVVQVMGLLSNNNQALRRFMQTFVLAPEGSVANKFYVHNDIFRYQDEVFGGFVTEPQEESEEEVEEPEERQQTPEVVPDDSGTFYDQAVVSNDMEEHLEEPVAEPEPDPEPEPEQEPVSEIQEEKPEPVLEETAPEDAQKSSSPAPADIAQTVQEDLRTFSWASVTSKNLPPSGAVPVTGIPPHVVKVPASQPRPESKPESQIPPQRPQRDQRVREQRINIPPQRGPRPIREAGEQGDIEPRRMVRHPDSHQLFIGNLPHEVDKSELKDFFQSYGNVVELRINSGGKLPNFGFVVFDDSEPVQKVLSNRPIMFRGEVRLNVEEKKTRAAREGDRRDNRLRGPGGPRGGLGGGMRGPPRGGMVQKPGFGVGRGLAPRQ
Technique: RNA Bind-n-Seq
Form: RNA
Matrix: in vitro
Concentration: 200 nM
Setting: whole 134-nt RNA, ends assumed
Together with: 150 mM KCl
Reference: input library
Reading: higher = stronger binding
Endpoint: log2 enrichment
Shared flanks, not repeated: GGGAGUUCUACAGUCCGACGAUC … UGGAAUUCUCGGGUGUCAAGG
UCAAGUCCUGUGCUACACAUCGUAUGUACCGAAUCGGAAAGGGAAAGGGAAAGGAAAGUAUUAUGUUACGCCGUUCGGAUCUGCACUUCC: -0.852
UGGGAGGUGGAUUUUGUUUAUUUUUUUAGCUCAUUUCCAGGGGUGGGAAUUUUUUUUUAAUAUGUGUCAUGAAUAAAGUUGUUUUUGCAA: 0.239
ACUGAGGUACUGCCCUCCCCUGCCCCCUACCCUCUCCCUUGUCCCUCUACCCCGUUCCUCCCCUUCCCUCCAUUCCCUUUCCCCAACCUG: 1.18
GUCCUGUGCUACACAUCGUAUGUACCGAAUCGGGGUUUGGGGAGGGGAAAAAAAGGGGAAAGUAUUAUGUUACGCCGUUCGGAUCUGCAC: 0.397
CCUGUGCUACACAUCGUAUGUACCGAAUCGGGCCCCCCGGCCCCCCGGGGCCCCCCGGGGAAAGUAUUAUGUUACGCCGUUCGGAUCUGC: -0.411
GUCCUGUGCUACACAUCGUAUGUACCGAAUCAAACCCCCAAACCCCCAAACCCCCAAAAAAGUAUUAUGUUACGCCGUUCGGAUCUGCAC: -0.483
AGUCCUGUGCUACACAUCGUAUGUACCGAAUCGGGUGGGUUUUUGGGUUUUUUUGGGAAAGUAUUAUGUUACGCCGUUCGGAUCUGCACU: -0.312
AGUCCUGUGCUACACAUCGUAUGUACCGAAUCGGGAAAAAGGGAAAGGGUUUUUGGGAAAGUAUUAUGUUACGCCGUUCGGAUCUGCACU: -0.366
AAGUCCUGUGCUACACAUCGUAUGUACCGAAUCGGGAAAAAAAGGGUUUGGGAGGGAAAGUAUUAUGUUACGCCGUUCGGAUCUGCACUU: 0.34
UGGGAGGUGGAUUUUGUUUAUUUUUUUAGCUCAUUUCCAGGGGCGGGAAUUUUUUUUUAAUAUGUGUCAUGAAUAAAGUUGUUUUUGAAA: 0.041
UCCUGUGCUACACAUCGUAUGUACCGAAUCGGAAAAAAAGGGAAAAAAAGGAAAAAAAGGAAAGUAUUAUGUUACGCCGUUCGGAUCUGC: -0.436
CUGUGCUACACAUCGUAUGUACCGAAUCGGGGUUUUUUUGGGGUUUUUUUGGUUUUUUUGGGAAAGUAUUAUGUUACGCCGUUCGGAUCU: -0.89
UGGUUAGUCAACUACUUUGGUUCCUUAUCAGUAGAAGACUCCCUAGAAUGUCUCAGAGCCAUGCUGUCUGCCAACAUCCGUCAGAAUCUG: -0.135
CGGGAGGUGGAUUUUGUUUAUUUUUUUAGCUCAUUUCCAGGGGUGGGAAUUUUUUUUUAAUAUGUGUCAUGAAUAAAGUUGUUUUUGAAA: 0.186

Study 3
Target: RNA binding protein fox-1 homolog 2, RRM domain, GST-SBP tag (RBFOX2, Homo sapiens, UniProt O43251-10, residues 100-194)
Technique: RNA Bind-n-Seq
Form: RNA
Matrix: in vitro
Concentration: 365 nM
Setting: natural RNA segment, single round, ends assumed
Reference: no-protein control
Reading: higher = stronger binding
Endpoint: RBNS enrichment (R)
Shared flanks, not repeated: GGGAGUUCUACAGUCCGACGAUC … UGGAAUUCUCGGGUGCCAA
Construct (chain): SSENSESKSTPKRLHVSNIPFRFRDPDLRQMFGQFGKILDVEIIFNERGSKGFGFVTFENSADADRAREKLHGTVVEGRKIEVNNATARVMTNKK
GAUUUUGCCAAAAUUGUCAUGACUCUGAAUUCUUGCUGUGGGGACUUCCUGAGUUUUCUCAGUUUUUACAUCUAAGAUUAGUCUUGGCUGAAGAGAAAUGAGACGUGAUU: 0.566
ACUGCCAUCACAAAUGUCCCGGGGCCUCCUGCAAGACAGUAAUGAAUCCAGGUUAUAGUGCCUUCGACGUCUCGGUUCCCCGGAAGGAUGCUCCUUCCCUGAAUAUGCAG: 0.34
UGCCUGCACCUGCACUCUAGUGACCCUGGGUGCCGCCAGACCCUUCUCUUCUACAAAGACCCCAGCAGGAGUGGGAGGGUCUGCAAUGGCAUCGCCCUGUCCUGCCUUGG: 0.631
UGAUGGUAAAGAACACAUUGAAAGUACUGCAGGUUGCAGUUGACAGUACCCACAUGGUCUGCAAAAGCCUGGCUUUGCUGGCAACUAUUGGAGAAUGCUUGGUUUGCAUG: 13.3
AAUUCAUGUCAGUGAAGAAAUGCAGAAUUUAAACAAAAUCAGCUUGAGUUUGUUUUACCAGAUGCUCAGCUUGCUAACACACUUGAGAUCAGACCAUACUCUGAGCAGAC: 0.239
UACAUCUGCACAUACAAGCGCUUGUGCUAACAGAGCCAGACUUGGACUCCCCUACCUAUUAGUCUGGCCCCCAUGUGCUUUGCUCCCCAUGCUCAGUGGUCACUAUCCCC: 0.76
GUCCAUCAGCGCUGACCUUCCGGGGGCCCAGAGCUUCCCAGCCCUGAGUCAAGCUGGCCAUGAACGCGUACACUUCAGUUCAGCAGGAUGGGCUGGAGAGCCUCUCUGUG: 0.275
GGGCCACGGCCUCCAUCAUGCUGAAUGACGCCUUCCUUCUGCCCCACCCCAGAAAAUCACUGUGAAAUUUCAUGAUUGGCUUAAAGUGAAGGAAAUAAAGGUAAAAUCAC: 0.437
UCUUCACUUGCUAAAGCAGCUAAACUGUGAAGCUCUAAGUGGUUUGGGUUUGUUGUUUAACCUUAGCGAGAUCCUUUAACUGCAGCAAUAUUCAAGCCAGAUAUUUGGAA: 0.551
GUGUGUGUGAGAGUGAGUGAGUGUGCGUGCGUGCGUGCUUGUAUGUAUGUUUGUAUAUGUAGGACAAUAAGUUCCUUCUGACACAAGGGAGACACGAGAAGGAUAGCCUG: 12.3
CUUAACUUCCCUCUAUAGUCAGCAGAGGGGAUCCGAGGCCCAGUGCUGCCUGGAGAACUGAGAAUAGACCUCUGUUGUUGACCCUUCCUCAGGCUGGAGCCUGGGUGUUG: 0.398
GCCCCCCUGUCUGAUGUUGAUGAGGGGUCAUACCAGCCAGGGAGACCCUCUGGGAGGAAGCUGCCACACACAAGGACUCUGGAAGUAUCCAGAUGUGAGCCCAGCCAGGG: 0.515

Study 4
Target: Prothrombin, mature alpha-thrombin (F2, Homo sapiens, UniProt P00734)
Technique: aptamer microarray, sandwich
Form: DNA with 2'F-ANA
Matrix: in vitro
Concentration: 200 nM
Setting: whole 15-mer aptamer, many near background
Together with: Cy3 exosite-II aptamer, 400 nM
Reading: higher = stronger binding
Endpoint: mean fluorescence intensity
Sequence: GGTTGGTGTGGTTGG
2'F-ANA at 1 2 3 8 11 12: 433 a.u.
2'F-ANA at 2 4 5 6 7 9 11 12 14 15: 50 a.u.
2'F-ANA at 3 4 5 6 7 9 10 11 12 14 15: 67.5 a.u.
2'F-ANA at 2 5 6 9 12 13: 93.6 a.u.
2'F-ANA at 4 6 7 9 12 13 14 15: 79 a.u.
2'F-ANA at 2 4 5 6 7 12 13 15: 80.3 a.u.
2'F-ANA at 1 2 3 5 11 12 14 15: 47.2 a.u.
2'F-ANA at 2 3 8 10 11 13: 324 a.u.
2'F-ANA at 1 2 4 5 6 8 10 13 15: 48 a.u.
2'F-ANA at 3 4 6 8 12 13 14: 319 a.u.
2'F-ANA at 4 5 6 8 11 13 14 15: 42.3 a.u.
2'F-ANA at 1 3 4 5 7 9 11 12 14 15: 54.5 a.u.
2'F-ANA at 2 3 4 7 13 14 15: 315 a.u.
2'F-ANA at 2 4 5 6 8 12 15: 188 a.u.
2'F-ANA at 1 2 3 4 5 6 7 8 9 10 11 12 14: 51.8 a.u.
2'F-ANA at 4 7 10 15: 94.6 a.u.

Study 5
Target: PABPC1L2, full length, GST fusion (mouse, UniProt A0ABA7IW68)
Technique: RNAcompete
Form: RNA
Matrix: in vitro
Concentration: 20 nM
Setting: 7-mer, probes averaged, single round
Reference: mean of 7-mers
Reading: higher = stronger binding
Endpoint: 7-mer Z-score
Residues (chain): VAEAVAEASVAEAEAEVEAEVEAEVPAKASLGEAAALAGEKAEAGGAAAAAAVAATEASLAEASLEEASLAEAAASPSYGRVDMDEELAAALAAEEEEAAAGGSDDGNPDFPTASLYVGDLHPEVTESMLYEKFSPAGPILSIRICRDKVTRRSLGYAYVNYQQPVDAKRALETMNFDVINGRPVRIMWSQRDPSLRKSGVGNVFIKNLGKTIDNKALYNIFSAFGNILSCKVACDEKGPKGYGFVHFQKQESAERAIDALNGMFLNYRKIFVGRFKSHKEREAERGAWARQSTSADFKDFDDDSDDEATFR
AAUGGAC: 0.173
GGGCAUU: 0.338
CAGGGCC: -0.122
CCGCUAC: -0.36
CGAACAG: -0.0591
GACAGCG: -0.0826
CUUCGGC: -0.286
AUGUGAU: -0.161
UAUGACA: -0.0192
UAUCCGU: -0.338
AAACGCU: 0.379
UCUGAAC: -0.186
GAACCCC: -0.295
AUUAGAA: 0.418
UAUUCCG: -0.306
CCACGAU: -0.128
CACGCAU: -0.253
AACAAUU: 0.447
ACUAAUU: -0.15
UUCUCCA: -0.391
GUCCCGG: -0.262
UCAUUCG: -0.313
CGUAACC: -0.354
CCCCCCC: -0.51
CUCUACA: -0.231

Repeated from above (study 5):
GAACCCC: -0.295
AUUAGAA: 0.418
UAUUCCG: -0.306
CCACGAU: -0.128
CACGCAU: -0.253
AACAAUU: 0.447
ACUAAUU: -0.15
UUCUCCA: -0.391
GUCCCGG: -0.262
